Measurements of several laboratories.
Every numbered part comes from another study and shows a few of its results, in no order.
UniProt O15294, sequence (whole entry, looked up): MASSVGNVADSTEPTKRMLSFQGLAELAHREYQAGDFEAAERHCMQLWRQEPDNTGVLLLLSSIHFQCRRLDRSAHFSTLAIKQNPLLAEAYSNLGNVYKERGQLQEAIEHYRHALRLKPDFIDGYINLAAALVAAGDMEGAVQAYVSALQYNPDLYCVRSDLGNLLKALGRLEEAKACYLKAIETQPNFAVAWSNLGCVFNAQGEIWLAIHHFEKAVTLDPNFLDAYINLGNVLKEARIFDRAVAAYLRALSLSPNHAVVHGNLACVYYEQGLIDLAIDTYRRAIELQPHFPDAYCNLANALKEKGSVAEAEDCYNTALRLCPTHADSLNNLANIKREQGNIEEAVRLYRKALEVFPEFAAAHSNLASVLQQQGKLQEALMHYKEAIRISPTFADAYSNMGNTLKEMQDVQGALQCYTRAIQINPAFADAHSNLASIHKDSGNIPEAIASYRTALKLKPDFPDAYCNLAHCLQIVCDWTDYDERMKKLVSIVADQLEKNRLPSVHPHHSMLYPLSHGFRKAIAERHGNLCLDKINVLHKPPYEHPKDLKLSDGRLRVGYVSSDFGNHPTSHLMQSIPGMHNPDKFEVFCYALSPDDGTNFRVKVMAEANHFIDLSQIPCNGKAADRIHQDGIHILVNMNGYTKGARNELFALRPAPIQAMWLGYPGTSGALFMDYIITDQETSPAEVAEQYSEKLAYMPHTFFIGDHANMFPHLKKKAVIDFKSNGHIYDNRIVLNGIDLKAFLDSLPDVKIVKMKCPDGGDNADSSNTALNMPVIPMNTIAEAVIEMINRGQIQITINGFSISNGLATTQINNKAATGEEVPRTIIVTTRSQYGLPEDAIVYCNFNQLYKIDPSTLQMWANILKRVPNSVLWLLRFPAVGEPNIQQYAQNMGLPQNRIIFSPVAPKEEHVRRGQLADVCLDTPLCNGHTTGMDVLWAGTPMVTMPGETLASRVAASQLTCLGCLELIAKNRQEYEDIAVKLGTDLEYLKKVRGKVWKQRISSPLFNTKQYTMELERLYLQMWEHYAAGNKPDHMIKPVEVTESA

Block 1
Target: Ras GTPase-activating protein-binding protein 1, C-terminal RGG region (G3BP1, Homo sapiens, UniProt Q13283)
UniProt Q13283, sequence (whole entry, looked up): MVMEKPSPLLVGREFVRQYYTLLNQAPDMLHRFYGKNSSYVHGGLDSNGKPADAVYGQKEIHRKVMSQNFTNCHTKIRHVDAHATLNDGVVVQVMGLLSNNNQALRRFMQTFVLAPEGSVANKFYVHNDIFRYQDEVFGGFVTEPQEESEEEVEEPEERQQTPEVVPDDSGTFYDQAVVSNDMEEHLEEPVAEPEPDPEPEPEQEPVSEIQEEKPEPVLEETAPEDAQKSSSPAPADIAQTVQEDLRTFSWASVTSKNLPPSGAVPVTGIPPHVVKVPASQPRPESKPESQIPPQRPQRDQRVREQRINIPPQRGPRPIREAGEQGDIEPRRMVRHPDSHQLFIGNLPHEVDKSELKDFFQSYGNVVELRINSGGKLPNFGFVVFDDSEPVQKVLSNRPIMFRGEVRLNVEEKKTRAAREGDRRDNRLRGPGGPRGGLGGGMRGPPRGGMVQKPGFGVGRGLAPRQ
Technique: RNA Bind-n-Seq
Form: RNA
Matrix: in vitro
Tested at: 1 µM
Notes: whole 134-nt RNA, ends assumed
Together with: 150 mM KCl
Reference: input library
Direction: higher = stronger binding
`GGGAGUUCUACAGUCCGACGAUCUAACUUUAGAGGGGGAUCUGAUGGAUAUGGCAGUGGACGUGGAUUUGGGGAUGGCUAUAAUGGGUAUGGAGGAGGACCUGGAGGUGGCAAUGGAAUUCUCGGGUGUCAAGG` gave a log2 enrichment of -0.0934.
`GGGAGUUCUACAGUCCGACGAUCUCAAGUCCUGUGCUACACAUCGUAUGUACCGAAUCGGAAAGGGAAAGGAAAGGGAAAGUAUUAUGUUACGCCGUUCGGAUCUGCACUUCCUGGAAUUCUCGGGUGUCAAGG` has a log2 enrichment of -1.41.
The log2 enrichment of `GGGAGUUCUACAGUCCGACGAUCUGUGCUACACAUCGUAUGUACCGAAUCGGGGUUUUUUUGGGGAAAAAGGGGUUUUUUUGGGGAAAGUAUUAUGUUACGCCGUUCGGAUCUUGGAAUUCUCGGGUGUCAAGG` is reported as 0.716.
`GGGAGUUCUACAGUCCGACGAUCACCAUGCAGGUGGGCAUCUUUGGGAAGUGGGGCAAGGGGGGGAUAGGGAGGGGGGUAACACUUUGGGAACAGGUGGUCCCAGGUCUUUUCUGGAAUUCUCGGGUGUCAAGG` gave a log2 enrichment of 2.28.
For `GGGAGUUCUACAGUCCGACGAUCAGUCCUGUGCUACACAUCGUAUGUACCGAAUCGGGCCCCCGGGCCCCCGGCCCCCGGGAAAGUAUUAUGUUACGCCGUUCGGAUCUGCACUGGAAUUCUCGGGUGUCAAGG`, the log2 enrichment was -2.32.
`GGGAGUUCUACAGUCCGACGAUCUGUGCUACACAUCGUAUGUACCGAAUCGGGGUUUUUUUGGGUUUUUUUGGGGUUUUUUUGGGAAAGUAUUAUGUUACGCCGUUCGGAUCUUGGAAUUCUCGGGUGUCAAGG` has a log2 enrichment of -1.04.
The log2 enrichment of `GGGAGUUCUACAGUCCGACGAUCAAGUCCUGUGCUACACAUCGUAUGUACCGAAUCGGGUUUUUGGGUUUUUGGGAGGGAAAGUAUUAUGUUACGCCGUUCGGAUCUGCACUUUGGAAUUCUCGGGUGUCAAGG` is reported as 0.243.
With `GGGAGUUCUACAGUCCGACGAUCUCCUCAAGUCCUGUGCUACACAUCGUAUGUACCGAAUCGGAAAGGAGGAGGAAAGUAUUAUGUUACGCCGUUCGGAUCUGCACUUCCAGCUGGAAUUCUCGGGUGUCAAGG` the log2 enrichment was -1.5.

Block 2
Target: Protein max, full length (MAX, Homo sapiens, UniProt P61244-2, residues 1-151)
Technique: protein-binding microarray
Form: double-stranded DNA, one strand shown
Matrix: in vitro
Tested at: not given
Notes: k-mer, scored over probes, only values ≥0.25
Direction: higher = stronger binding
`AACGTGGT` gave an E-score of 0.434.
With `AGGTGCAT` the E-score was 0.333.
The E-score of `CGTGTTTA` is reported as 0.396.
`CATGATCG` has an E-score of 0.303.
For `ACAGGTGC`, the E-score was 0.309.
`CATGACCC` has an E-score of 0.29.
`ATGCGGCA` has an E-score of 0.322.
For `CGGGGCAC`, the E-score was 0.281.

Single results of other studies
For `AP2B1 (Homo sapiens, UniProt P63010)`, cross-linked residues read “K322 to K281” (AP2M1 (Homo sapiens, UniProt Q96CW1); cross-linking MS; cells; together with: BSPNO).
For `QMDGMFPPKYQINSF`, “enrichment fold change” read 3.86 (OGT (Homo sapiens, UniProt O15294); binding, phage display NGS; peptide; concentration not given; reference: input library).

Some of these lines once more (block 2):
`AACGTGGT` gave an E-score of 0.434.
With `AGGTGCAT` the E-score was 0.333.
